Assay results of several laboratories.
Numbers after ± are the reported error.
DRD3: D(3) dopamine receptor (DRD3, Homo sapiens, UniProt P35462)
UniProt P06276, sequence (whole entry, looked up): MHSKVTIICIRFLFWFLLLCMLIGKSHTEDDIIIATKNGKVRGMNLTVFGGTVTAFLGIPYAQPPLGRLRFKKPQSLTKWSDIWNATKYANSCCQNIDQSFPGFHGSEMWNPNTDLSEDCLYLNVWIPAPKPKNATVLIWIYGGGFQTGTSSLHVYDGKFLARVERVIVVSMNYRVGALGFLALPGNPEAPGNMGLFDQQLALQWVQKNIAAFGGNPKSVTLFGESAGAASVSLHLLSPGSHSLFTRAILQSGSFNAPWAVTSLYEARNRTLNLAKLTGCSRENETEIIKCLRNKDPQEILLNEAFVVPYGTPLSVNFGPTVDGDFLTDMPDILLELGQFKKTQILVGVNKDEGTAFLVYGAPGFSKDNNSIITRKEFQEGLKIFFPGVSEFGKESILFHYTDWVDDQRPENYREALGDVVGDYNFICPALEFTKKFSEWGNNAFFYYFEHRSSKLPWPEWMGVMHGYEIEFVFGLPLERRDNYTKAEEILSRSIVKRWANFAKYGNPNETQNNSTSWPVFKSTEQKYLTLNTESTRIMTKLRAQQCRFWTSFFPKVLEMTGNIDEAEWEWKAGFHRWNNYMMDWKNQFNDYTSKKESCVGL
UniProt P35462, sequence (whole entry, looked up): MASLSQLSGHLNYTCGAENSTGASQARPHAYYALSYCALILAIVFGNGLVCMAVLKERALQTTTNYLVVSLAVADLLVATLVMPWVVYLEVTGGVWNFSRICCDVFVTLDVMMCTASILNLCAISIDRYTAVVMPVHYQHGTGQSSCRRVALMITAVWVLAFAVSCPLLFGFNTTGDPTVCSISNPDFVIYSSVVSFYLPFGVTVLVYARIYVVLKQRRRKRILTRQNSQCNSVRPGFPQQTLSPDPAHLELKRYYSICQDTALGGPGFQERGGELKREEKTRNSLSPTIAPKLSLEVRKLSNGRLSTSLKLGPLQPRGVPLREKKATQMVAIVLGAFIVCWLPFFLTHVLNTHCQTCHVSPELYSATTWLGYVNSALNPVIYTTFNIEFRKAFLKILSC
UniProt Q8N568, sequence (whole entry, looked up): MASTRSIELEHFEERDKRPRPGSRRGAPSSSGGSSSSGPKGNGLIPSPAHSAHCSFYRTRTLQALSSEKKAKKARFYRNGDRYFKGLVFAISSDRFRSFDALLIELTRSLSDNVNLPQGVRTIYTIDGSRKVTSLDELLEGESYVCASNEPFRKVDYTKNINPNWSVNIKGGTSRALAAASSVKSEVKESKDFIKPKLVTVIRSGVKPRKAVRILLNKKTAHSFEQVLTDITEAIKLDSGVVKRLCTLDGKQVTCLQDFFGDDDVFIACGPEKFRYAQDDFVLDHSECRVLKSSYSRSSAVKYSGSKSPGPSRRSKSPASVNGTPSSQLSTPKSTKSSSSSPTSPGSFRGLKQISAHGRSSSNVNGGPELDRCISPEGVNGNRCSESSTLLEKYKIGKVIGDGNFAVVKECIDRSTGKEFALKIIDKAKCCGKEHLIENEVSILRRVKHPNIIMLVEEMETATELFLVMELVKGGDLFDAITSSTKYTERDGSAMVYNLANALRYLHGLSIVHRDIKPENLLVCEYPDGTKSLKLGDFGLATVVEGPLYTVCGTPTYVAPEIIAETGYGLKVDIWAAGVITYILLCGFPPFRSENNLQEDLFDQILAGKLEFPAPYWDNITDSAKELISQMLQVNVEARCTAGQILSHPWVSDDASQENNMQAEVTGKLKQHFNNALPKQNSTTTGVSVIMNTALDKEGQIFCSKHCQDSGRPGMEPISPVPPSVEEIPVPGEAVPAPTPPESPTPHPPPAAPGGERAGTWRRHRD
UniProt Q5T6X5, sequence (whole entry, looked up): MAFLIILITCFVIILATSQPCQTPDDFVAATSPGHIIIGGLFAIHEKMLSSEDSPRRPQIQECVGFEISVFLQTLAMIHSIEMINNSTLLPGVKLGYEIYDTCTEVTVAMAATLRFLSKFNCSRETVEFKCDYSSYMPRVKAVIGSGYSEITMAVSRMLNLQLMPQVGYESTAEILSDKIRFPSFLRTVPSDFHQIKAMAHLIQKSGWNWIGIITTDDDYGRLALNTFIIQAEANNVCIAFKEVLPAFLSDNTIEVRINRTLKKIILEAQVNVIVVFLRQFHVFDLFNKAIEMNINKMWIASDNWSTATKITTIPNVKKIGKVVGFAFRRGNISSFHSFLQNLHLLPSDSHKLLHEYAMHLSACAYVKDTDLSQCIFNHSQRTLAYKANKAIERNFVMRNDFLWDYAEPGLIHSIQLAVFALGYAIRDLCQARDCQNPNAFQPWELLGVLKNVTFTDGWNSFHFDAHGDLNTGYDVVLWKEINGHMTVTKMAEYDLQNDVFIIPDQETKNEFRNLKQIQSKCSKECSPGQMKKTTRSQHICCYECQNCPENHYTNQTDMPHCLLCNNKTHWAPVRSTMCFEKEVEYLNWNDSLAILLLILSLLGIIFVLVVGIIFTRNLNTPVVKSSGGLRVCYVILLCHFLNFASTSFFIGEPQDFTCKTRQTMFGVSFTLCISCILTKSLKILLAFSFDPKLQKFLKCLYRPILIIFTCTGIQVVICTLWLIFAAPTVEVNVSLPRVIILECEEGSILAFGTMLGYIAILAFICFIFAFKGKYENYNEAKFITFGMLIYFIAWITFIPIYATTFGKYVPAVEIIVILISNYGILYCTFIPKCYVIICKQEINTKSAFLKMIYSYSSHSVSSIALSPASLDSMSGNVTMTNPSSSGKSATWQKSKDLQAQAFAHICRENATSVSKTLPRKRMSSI
UniProt O43704, sequence (whole entry, looked up): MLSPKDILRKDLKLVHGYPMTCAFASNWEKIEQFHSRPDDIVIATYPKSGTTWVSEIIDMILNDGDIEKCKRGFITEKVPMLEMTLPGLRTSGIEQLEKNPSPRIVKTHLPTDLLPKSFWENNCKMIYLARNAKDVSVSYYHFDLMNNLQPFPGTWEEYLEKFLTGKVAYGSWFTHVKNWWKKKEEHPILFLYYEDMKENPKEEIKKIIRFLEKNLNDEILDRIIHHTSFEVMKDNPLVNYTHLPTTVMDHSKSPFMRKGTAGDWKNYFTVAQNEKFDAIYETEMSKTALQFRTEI
UniProt P81908, sequence (whole entry, looked up): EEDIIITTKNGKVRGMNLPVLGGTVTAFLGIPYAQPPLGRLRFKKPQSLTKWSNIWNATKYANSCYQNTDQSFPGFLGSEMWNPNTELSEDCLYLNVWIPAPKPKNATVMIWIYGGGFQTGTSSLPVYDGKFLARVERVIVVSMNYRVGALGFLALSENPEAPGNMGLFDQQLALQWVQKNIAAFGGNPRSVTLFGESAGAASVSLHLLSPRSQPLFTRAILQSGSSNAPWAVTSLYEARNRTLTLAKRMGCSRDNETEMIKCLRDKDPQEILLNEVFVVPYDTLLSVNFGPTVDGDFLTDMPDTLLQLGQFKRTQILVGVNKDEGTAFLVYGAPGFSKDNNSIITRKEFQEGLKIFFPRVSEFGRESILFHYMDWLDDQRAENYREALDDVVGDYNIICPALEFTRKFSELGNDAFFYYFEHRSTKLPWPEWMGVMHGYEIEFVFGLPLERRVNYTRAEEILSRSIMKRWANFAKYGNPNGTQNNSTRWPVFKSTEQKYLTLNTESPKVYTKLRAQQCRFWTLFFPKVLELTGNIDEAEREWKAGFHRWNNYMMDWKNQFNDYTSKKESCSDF
UniProt P45880, sequence (whole entry, looked up): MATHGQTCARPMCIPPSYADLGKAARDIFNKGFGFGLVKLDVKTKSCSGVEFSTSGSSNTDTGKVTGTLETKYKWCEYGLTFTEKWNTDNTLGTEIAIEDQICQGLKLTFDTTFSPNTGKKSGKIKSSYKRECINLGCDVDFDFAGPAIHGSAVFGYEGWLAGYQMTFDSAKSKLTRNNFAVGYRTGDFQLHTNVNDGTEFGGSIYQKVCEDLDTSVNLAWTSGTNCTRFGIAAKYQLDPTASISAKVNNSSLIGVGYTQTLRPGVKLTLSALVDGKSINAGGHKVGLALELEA
UniProt P28336, sequence (whole entry, looked up): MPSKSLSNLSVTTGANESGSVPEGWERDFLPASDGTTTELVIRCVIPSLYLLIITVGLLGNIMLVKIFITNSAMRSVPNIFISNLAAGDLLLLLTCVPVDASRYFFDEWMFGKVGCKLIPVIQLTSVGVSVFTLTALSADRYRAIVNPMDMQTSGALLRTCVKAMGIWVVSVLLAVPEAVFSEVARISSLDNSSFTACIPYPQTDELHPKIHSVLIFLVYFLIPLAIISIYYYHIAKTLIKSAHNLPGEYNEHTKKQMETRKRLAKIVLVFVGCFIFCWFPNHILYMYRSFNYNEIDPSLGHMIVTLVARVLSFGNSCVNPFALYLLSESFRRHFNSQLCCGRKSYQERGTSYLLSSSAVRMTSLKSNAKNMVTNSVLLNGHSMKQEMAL
UniProt Q9JMD7, sequence (whole entry, looked up): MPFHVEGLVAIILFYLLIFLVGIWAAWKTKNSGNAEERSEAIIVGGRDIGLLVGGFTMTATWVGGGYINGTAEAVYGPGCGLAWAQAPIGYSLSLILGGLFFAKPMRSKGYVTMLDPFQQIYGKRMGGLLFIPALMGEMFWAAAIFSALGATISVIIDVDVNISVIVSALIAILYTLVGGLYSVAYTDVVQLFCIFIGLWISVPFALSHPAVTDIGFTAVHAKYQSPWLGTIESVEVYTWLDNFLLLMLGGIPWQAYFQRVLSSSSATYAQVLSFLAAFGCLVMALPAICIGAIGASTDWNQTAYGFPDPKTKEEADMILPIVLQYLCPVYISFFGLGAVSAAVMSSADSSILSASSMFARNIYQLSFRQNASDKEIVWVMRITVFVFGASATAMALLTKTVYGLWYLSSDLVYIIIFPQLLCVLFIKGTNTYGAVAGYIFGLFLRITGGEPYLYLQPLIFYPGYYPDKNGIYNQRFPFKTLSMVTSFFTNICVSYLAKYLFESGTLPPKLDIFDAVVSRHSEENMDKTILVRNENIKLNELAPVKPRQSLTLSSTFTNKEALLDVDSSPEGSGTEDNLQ

CC[C@H](C)[C@H](NC(=O)[C@H](CCC(N)=O)NC(=O)[C@@H](NC(=O)[C@@H]1CCCN1C(=O)[C@@H](NC(=O)[C@H](CO)NC(=O)[C@H](Cc1ccccc1)NC(=O)[C@@H]1CCCN1C(=O)[C@H](CCC(N)=O)NC(=O)[C@@H](N)CCSC)[C@@H](C)CC)C(C)C)C(=O)N[C@H](C(=O)N[C@@H](CC(C)C)C(=O)N[C@@H](CCC(N)=O)C(=O)NCC(=O)N[C@@H](CO)C(=O)N[C@@H](CCCNC(=N)N)C(=O)N[C@@H](CCCNC(=N)N)C(=O)N[C@@H](CCCNC(=N)N)C(=O)N[C@@H](CCC(N)=O)C(=O)NCC(=O)N[C@@H](CCCNC(=N)N)C(N)=O)[C@@H](C)O gave a Hill coefficient of 1.21 (Kcnma1 (Mus musculus, UniProt Q08460); ion current, blocker, inside-out patch clamp; Xenopus oocytes; +80 mV, added: 10 µM cytosolic Ca2+).
CN1CCN(c2cc(-c3ccncc3)c(-c3ccc4ccccc4c3)nn2)CC1 gave an activation of -0.2% (NMBR (Homo sapiens, UniProt P28336); agonist, FLIPR; 12.5 µM).
With Nc1nc2c(ncn2[C@H]2C[C@H](O)[C@@H](COP(=O)(O)OP(=O)(O)OP(=O)(O)O)O2)c(=O)[nH]1 the kcat was 0.0253 ± 0.00367 s⁻¹ (Gag-Pol polyprotein, reverse transcriptase (gag-pol, Human immunodeficiency virus type 1 group M subtype B, UniProt P04585, K653A); nucleotide misincorporation, steady-state kinetics; K66A RT, added: matched template/primer, template T).
O=C(Nc1cccnn1)N1CCC(=Cc2cccc(Oc3ccc(C(F)(F)F)cn3)c2)CC1: “inhibition of binding” 12% (High affinity choline transporter 1 (Rattus norvegicus, UniProt Q9JMD7); radioligand binding; 50 µM, rat transporter, added: [3H]hemicholinium-3).
CCN(CC)CCOCCOC(=O)C1(c2ccccc2)CCCC1 gave an efficacy of -77 ± 5.89% (Cholinesterase (BCHE, Homo sapiens, UniProt P06276); concentration not given, Triton).
CO[C@H]1C[C@@H]2CC[C@@H](C)[C@@](O)(O2)C(=O)C(=O)N2CCCC[C@H]2C(=O)O[C@H]([C@H](C)C[C@@H]2CC[C@@H](OC(=O)NCCOCCOCCOCCOCCOCCOCCOCCOCCC(=O)N3CCc4cc(Cn5nc(-c6ccc7oc(N)nc7c6)c6c(N)ncnc65)ccc4C3)[C@H](OC)C2)C[C@@H](O)[C@H](C)/C=C(\C)[C@@H](O)[C@@H](OC)C(=O)[C@H](C)C[C@H](C)/C=C/C=C/C=C/1C — result for “dose-reducing adverse events”: 0% (phase 1 dose escalation, refers to: mucositis; advanced solid tumour patients; intravenous, 8 mg weekly, grade ≥3).
The kinact/KI of C#CCNCC(=O)O is reported as 30 ± 1 M⁻¹ s⁻¹ (putA (Sinorhizobium meliloti, UniProt F7X6I3); covalent inactivator; 23 °C).
For O=C(Nc1cnccc1Cl)N1CCN(Cc2ccc3c(c2)OC(F)(F)O3)CC1, “inhibition of binding” read 17% (DRD3; radioligand binding; 10 µM, added: [3H]spiperone).
Under “grade 3 Hematochezia”, COc1cc2c(Oc3ccc4[nH]c(C)cc4c3F)ccnc2cc1OCC1(N)CC1 is recorded as 0% (paediatric recurrent refractory sarcoma; 12 mg).
For CCN(CC)C(=O)Oc1ccc(/C=C/C(=O)NC2CCN(Cc3ccccc3)CC2)cc1OC, the selectivity ratio was 0.7 (Cholinesterase (BCHE, Equus caballus, UniProt P81908); Ellman; equine serum BuChE; relative to: AChE IC50 over BuChE IC50).
For CC1(C)S[C@@H]2[C@H](NC(=O)[C@H](N)c3ccccc3)C(=O)N2[C@H]1C(=O)O, the kinact/KI was 6700 ± 240 M⁻¹ s⁻¹ (Penicillin-binding protein 2B (Streptococcus pneumoniae, UniProt P0A3M6); inhibitor).
C[C@H]1CN(c2n[nH]c3nc(N[C@H]4CC[C@H](NS(=O)(=O)CCC(F)(F)F)CC4)ncc23)CCO1 has a remaining binding of 1.2 (Non-selective voltage-gated ion channel VDAC2 (Homo sapiens, UniProt P45880); Kinobeads competition, refers to: VDAC2; 20 µM, unit not given; relative to: vehicle).
COc1cc(N)c(Cl)cc1C(=O)NC1CN2CCC1CC2 (centres unmarked): “log2 fold change” 0.221 (G-protein coupled receptor family C group 6 member A (GPRC6A, Homo sapiens, UniProt Q5T6X5); β-arrestin recruitment, TANGO luminescence, refers to: GPRC6A; concentration not given; relative to: basal luminescence).
O=C(c1ccc(Cl)cc1)N1CCN2C(=O)N(OC(=O)N3CCOc4ccccc43)C(=O)C2C1 (centres unmarked): “probe labelling ratio” 2.49 (Keratin, type II cytoskeletal 1 (KRT1, Homo sapiens, UniProt P04264); MS-based ABPP; SW-620 conditioned medium; 10 µM, median protein ratio; relative to: compound over DMSO).
CC[C@H](C)[C@@H]1NC(=O)[C@@H]2CCCN2C(=O)[C@H](CC(C)C)NC(=O)[C@H](CC(C)C)NC(=O)CNC(=O)[C@@H](NC(=O)[C@@H](NC(=O)[C@H](CC(=O)O)NC(=O)CNC(=O)[C@@H](NC(=O)[C@H](C)NC(=O)CNC(=O)[C@H](CCCCN)NC(=O)[C@H](CC(C)C)NC(=O)[C@H](CC(C)C)NC(=O)[C@H](CCCCN)NC(=O)CNC(=O)[C@@H](NC(=O)[C@@H](N)CC(C)C)C(C)C)C(C)C)C(C)C)CSSC[C@@H](C(=O)O)NC1=O: “log2 fold change” -2.22 (RNA-seq, refers to: Amd-ps4 mRNA; mouse traumatic brain injury, frontal cortex and hippocampus; dose not given; relative to: TBI plus compound vs TBI).
The IC50 of COc1ccc(CCN(C)CCCC(C#N)(c2ccc(OC)c(OC)c2)C(C)C)cc1OC (centres unmarked) is reported as 2510 nM (Plasmodium falciparum; HB3).
O=C(O)CCC(=O)C(=O)O has an apparent kcat of 0.25 ± 0.0667 s⁻¹ (HIF1AN (Homo sapiens, UniProt Q9NWT6, Y93A); cosubstrate; pH 7.00, 37.0 °C, mutant Y93A, added: CTAD peptide 100 µM, cosubstrate 217 µM).
The tissue uptake of CC(C)[C@@H]1NC(=O)[C@H](Cc2ccccc2)NC(=O)[C@@H]2NC(=O)[C@H](Cc3ccccc3)NC(=O)[C@@H]3CCCN3C(=O)CNC(=O)[C@H](Cc3ccccc3)NC(=O)[C@@H]3CNCCCC[C@@H](C(=O)O)NC(=O)[C@@H]4NC(=O)[C@H](CC(N)=O)NC(=O)CNC(=O)[C@H]([C@@H](O)C(=O)O)NC(=O)[C@H](CSC[C@@H](NC(=O)[C@H](CCC(N)=O)NC(=O)[C@H](CCCCNC(=O)c5ccc(NN)nc5)NC(=O)[C@@H](N)CS[C@H]4C)C(=O)N[C@@H](CS[C@H]2C)C(=O)N3)NC1=O [technetium-99m labelled] is reported as 0.02 %ID/g (rat, saline control, muscle; intravenous, 2 h after tracer, tracer 24 h after reperfusion).
COc1ccc(N2C(=O)N(c3c(C)cccc3Cl)Cc3cnc(Nc4ccc(C5CCN(C)CC5)cc4OC)nc32)nc1 has an inhibition of 11% (DCLK2 (Homo sapiens, UniProt Q8N568); kinase activity, inhibitor; 0.5 µM, DCAMKL2).
For Cc1[nH]c(C)c(S(=O)(=O)Nc2ccc(S(F)(F)(F)(F)F)cc2)c1C(=O)N1CCC(F)(F)C1, the Bmax was 1690 ± 300 fmol/mg (DRD3; saturation binding; 100 µM, added: [3H]dopamine).
With CN(C(=O)n1cnc(-c2ccc[n+]([O-])c2)c1)C1CCCCC1 the inhibition was 23% (HTR4 (Cavia porcellus, UniProt O70528); radioligand binding; 50 µM, added: [3H]GR-113808).
O=c1cc(CSc2ccc(N=Cc3ccc(F)cc3)cc2)occ1O has a fluorescence decrease of about 52% (MAL12 (Saccharomyces cerevisiae S288c, UniProt P53341); intrinsic fluorescence; 20 µM).
With COc1cc(Nc2ncc(F)c(Nc3ccc4c(n3)NC(=O)C(C)(C)O4)n2)cc(OC)c1OC the IC50 was over 10000 nM (AGTR1 (Homo sapiens, UniProt P30556)).
With COc1cc2nccc(Oc3ccc(NC(=O)c4cc5c(n(-c6ccccc6)c4=O)CCCC5=O)nc3)c2cc1OC the selectivity ratio was over 100 (FRK (Homo sapiens, UniProt P42685); cell viability, CellTiter-Glo; Ba/F3 expressing recombinant kinase; relative to: FRK IC50 over AXL IC50).
The TΔS of Nc1ncnc2c1ncn2[C@@H]1O[C@H](COP(=O)(O)OP(=O)(O)NP(=O)(O)O)[C@@H](O)[C@H]1O is reported as 4.17 kcal/mol (N-acetylmannosamine kinase (nanK, Haemophilus influenzae, UniProt Q4QP43, T131V); binding).
For CC1(C(=O)O)C2CCC(O2)C1(C)C(=O)O (centres unmarked), the IC50 was 1260 nM (Plasmodium falciparum; W2).
CC(=O)N[C@@H](C)C(=O)N1CCC[C@H]1C(=O)N[C@@H](CC(C)C)C(=O)N[C@H](C(=O)N[C@@H](CCCNC(=N)N)C(=O)NCC(=O)N[C@@H](CO)C(=O)N[C@@H](CS)C(=O)N[C@@H](CCCNC(=N)N)C(=O)N[C@@H](CCCCN)C(=O)N[C@@H](CCCNC(=N)N)C(=O)N[C@@H](CC(N)=O)C(=O)N[C@@H](CCCNC(=N)N)C(=O)N[C@@H](CO)C(=O)N1CCC[C@H]1C(=O)N[C@@H](CCC(=O)O)C(=O)N[C@@H](CCCNC(=N)N)C(N)=O)[C@@H](C)O has a ΔG of -6.26 kcal/mol (WDR5 (Homo sapiens, UniProt P61964); binding, competitor of LANA peptide, ITC; pH 7.0, 20 °C, WIN motif peptide).
With CC[C@H](C)[C@H](NC(=O)[C@H](Cc1ccccc1)NC(=O)[C@H](CCC(=O)O)NC(=O)[C@H](CCCNC(=N)N)NC(=O)[C@H](C)NC(=O)[C@H](C)NC(=O)[C@H](CCC(N)=O)NC(=O)[C@H](CCC(=O)O)NC(=O)[C@H](CCC(=O)O)NC(=O)[C@H](CC(C)C)NC(=O)[C@H](Cc1ccc(O)cc1)NC(=O)[C@H](CO)NC(=O)[C@H](CO)NC(=O)[C@@H](NC(=O)[C@H](CC(=O)O)NC(=O)[C@H](CO)NC(=O)[C@@H](NC(=O)[C@H](Cc1ccccc1)NC(=O)[C@@H](NC(=O)CNC(=O)[C@H](CCC(=O)O)NC(=O)[C@H](C)NC(=O)CCc1c[nH]cn1)[C@@H](C)O)[C@@H](C)O)C(C)C)C(=O)N[C@@H](C)C(=O)N[C@@H](Cc1c[nH]c2ccccc12)C(=O)N[C@@H](CC(C)C)C(=O)N[C@H](C(=O)N[C@@H](CCCNC(=N)N)C(=O)NCC(=O)N[C@@H](CCCNC(=N)N)C(=O)N[C@@H](CCCCNC(=O)COCCOCCNC(=O)COCCOCCNC(=O)CC[C@H](NC(=O)CCCCCCCCCCCCCCCCC(=O)O)C(=O)O)C(=O)NCC(=O)NCC(=O)N[C@@H](CO)C(=O)N[C@@H](CCCCNc1c(NCCCCCN(O)C(=O)CCC(=O)NCCCCCN(O)C(=O)CCC(=O)NCCCCCN(O)C(C)=O)c(=O)c1=O)C(=O)O)C(C)C [zirconium-89 labelled] the tissue uptake was 0.14 %ID/g (rat, intestine; iv, 3 nmol/kg, 72 h, ex vivo).
The efficacy of CC(CC1c2ccccc2CCc2ccccc21)CN(C)C (centres unmarked) is reported as -75.8 ± 4.43% (Cholinesterase (BCHE, Homo sapiens, UniProt P06276); concentration not given, Triton).
Oc1noc2c1CCNC2 gave a maximal response of 74% (GABA-A receptor; alpha-1/beta-2/gamma-2 (Rattus norvegicus, UniProt P18508+P62813+P63138); membrane potential, agonist, QP-DHM fluorescence; HEK293 expressing GABAA; relative to: GABA).
The Jmax of O=C(O)C(F)(F)C(F)(F)C(F)(F)C(F)(F)C(F)(F)C(F)(F)C(F)(F)F is reported as 3000 ± 1480 pmol/min/mg protein (SLC10A1 (Homo sapiens, UniProt Q14973); uptake, substrate, two-transporter equation fit; HEK293 cells stably expressing SLC10A1; 1 min, 37 °C).
Cc1nn(C)cc1-c1nc2c(N3CCN(Cc4ccc(Cl)cc4)CC3)c(Cl)cnc2[nH]1 gave a remaining binding of 100% (Tyrosine-protein kinase ABL1, non-phosphorylated (ABL1, Homo sapiens, UniProt P00519, Q252H); KINOMEscan; 1 µM; relative to: DMSO control).
COc1c(N2CC3CCCN(C(=O)OCc4ccc([N+](=O)[O-])cc4)C3C2)c(F)cc2c(=O)c(C(=O)O)cn(C3CC3)c12 (centres unmarked) gave a kcat of 0.0508 s⁻¹ (nfsB (Escherichia coli K-12, UniProt P38489); substrate; added: NADH 100 µM).
For Oc1c(Br)cc(Br)cc1Oc1ccc(Br)cc1Br, the Vmax/Km was 64000 µL/min/mg (SULT1B1 (Homo sapiens, UniProt O43704); sulfonation, substrate).
With Oc1ccc(-c2cc(Cl)ccc2Cl)c(Cl)c1 the IC25 was 1500 nM (Androgen receptor (AR, Homo sapiens, UniProt P10275); reporter gene, antagonist; 24 h, added: DHT 2 nM).

For quick reference, copied from above:
For CC1(C)S[C@@H]2[C@H](NC(=O)[C@H](N)c3ccccc3)C(=O)N2[C@H]1C(=O)O, the kinact/KI was 6700 ± 240 M⁻¹ s⁻¹ (Penicillin-binding protein 2B (Streptococcus pneumoniae, UniProt P0A3M6); inhibitor).
C[C@H]1CN(c2n[nH]c3nc(N[C@H]4CC[C@H](NS(=O)(=O)CCC(F)(F)F)CC4)ncc23)CCO1 has a remaining binding of 1.2 (Non-selective voltage-gated ion channel VDAC2 (Homo sapiens, UniProt P45880); Kinobeads competition, refers to: VDAC2; 20 µM, unit not given; relative to: vehicle).
